{"data": "Experimental data from different studies", "note": "A part holds a random share of what one study measured. Changes are numbered by the printed parent chain.", "sequence of UniProt P42684 (whole entry, looked up)": "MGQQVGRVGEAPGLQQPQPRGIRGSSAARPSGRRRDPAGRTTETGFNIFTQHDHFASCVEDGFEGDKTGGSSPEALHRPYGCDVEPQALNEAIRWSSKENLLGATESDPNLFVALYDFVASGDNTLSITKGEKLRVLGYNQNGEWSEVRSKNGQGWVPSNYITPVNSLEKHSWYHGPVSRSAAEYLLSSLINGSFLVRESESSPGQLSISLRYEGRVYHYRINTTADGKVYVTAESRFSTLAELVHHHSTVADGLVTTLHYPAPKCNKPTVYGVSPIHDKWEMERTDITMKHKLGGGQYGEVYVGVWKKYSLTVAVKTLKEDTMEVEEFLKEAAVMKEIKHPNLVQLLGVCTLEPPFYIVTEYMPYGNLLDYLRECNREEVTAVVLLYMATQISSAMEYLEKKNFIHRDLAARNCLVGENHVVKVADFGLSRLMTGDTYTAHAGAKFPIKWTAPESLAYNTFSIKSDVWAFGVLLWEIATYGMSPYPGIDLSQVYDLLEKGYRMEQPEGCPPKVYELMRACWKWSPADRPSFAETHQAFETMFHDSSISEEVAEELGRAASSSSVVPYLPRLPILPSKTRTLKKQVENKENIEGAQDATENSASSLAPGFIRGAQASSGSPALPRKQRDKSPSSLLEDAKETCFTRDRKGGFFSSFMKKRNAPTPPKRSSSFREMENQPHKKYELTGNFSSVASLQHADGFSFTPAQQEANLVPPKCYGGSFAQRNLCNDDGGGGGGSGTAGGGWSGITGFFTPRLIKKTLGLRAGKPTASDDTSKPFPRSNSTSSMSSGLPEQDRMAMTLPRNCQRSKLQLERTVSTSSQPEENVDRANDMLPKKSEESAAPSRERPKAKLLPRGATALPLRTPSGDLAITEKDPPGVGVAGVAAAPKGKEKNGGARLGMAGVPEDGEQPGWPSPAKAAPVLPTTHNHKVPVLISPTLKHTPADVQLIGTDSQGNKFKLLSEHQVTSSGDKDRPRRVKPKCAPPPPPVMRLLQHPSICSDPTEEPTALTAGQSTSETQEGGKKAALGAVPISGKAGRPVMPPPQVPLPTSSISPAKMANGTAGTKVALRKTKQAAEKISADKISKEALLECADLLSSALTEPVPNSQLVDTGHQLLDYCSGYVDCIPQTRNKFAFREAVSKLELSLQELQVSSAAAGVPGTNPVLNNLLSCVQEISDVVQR"}
{"data": "Series 1", "target": "CCNB1, cyclin fold, Cln2 fusion (human)", "method": "yeast growth competition, sequencing", "matrix": "yeast", "notes": "strong parent motif", "relative to": "not given", "reading": "higher = stronger binding", "starting sequence": "viral docking peptide; TSVRRALFTGGSD"}
{"Change": "R5P", "normalised enrichment score": -0.56}
{"Change": "D13A", "normalised enrichment score": 1.88}
{"Change": "S12R", "normalised enrichment score": 1.45}
{"Change": "R4G", "normalised enrichment score": -0.43}
{"Change": "R4Q", "normalised enrichment score": 1.29}
{"Change": "T9R", "normalised enrichment score": 1.12}
{"Change": "R5L", "normalised enrichment score": 0.24}
{"Change": "A6S", "normalised enrichment score": 1.08}
{"data": "Series 2", "target": "HLA class I histocompatibility antigen, A alpha chain, allele A*25:01 (Homo sapiens, UniProt P04439)", "observed": "peptide-MHC binding", "molecule type": "peptide", "tested at": "concentration not given"}
{"Sequence": "DRLASTVIY", "binding": "inactive"}
{"Sequence": "VTSSVSSGY", "binding": "inactive"}
{"Sequence": "EFVSANLAM", "binding": "inactive"}
{"Sequence": "LVTARQKLK", "binding": "inactive"}
{"Sequence": "VQPWLMVDV", "binding": "inactive"}
{"Sequence": "WTGMVDGWY", "binding": "inactive"}
{"Sequence": "RRELSKEKL", "binding": "inactive"}
{"Sequence": "LMTHTWHAK", "binding": "inactive"}
{"data": "Further values, each from its own experiment"}
{"Structure (SMILES)": "CNCC[C@@H](Oc1ccccc1C)c1ccccc1", "target or system": "HEK-293T", "test": "pseudovirus infection, FDA-approved drug library counter-screen", "test system": "VSV pseudotyped with VSV-G", "conditions": "10 µM, 16 h", "how to read": "relative to: vehicle-treated", "quantity": "GFP-positive cells", "value": "101%"}
{"Structure (SMILES)": "CN[C@@H]1C[C@H]2O[C@@](C)([C@@H]1OC)n1c3ccccc3c3c4c(c5c6ccccc6n2c5c31)C(=O)NC4", "target or system": "ABL2 (Homo sapiens, UniProt P42684)", "test": "enzyme activity, inhibitor", "conditions": "0.5 µM", "quantity": "remaining activity", "value": "5.25%"}
{"Structure (SMILES)": "CCCCOc1ccc(C(=O)CCN2CCCCC2)cc1", "target or system": "HEK-293T", "test": "pseudovirus infection, FDA-approved drug library counter-screen", "test system": "VSV pseudotyped with VSV-G", "conditions": "10 µM, 16 h", "how to read": "relative to: vehicle-treated", "quantity": "GFP-positive cells", "value": "91.1%"}
{"note": "Excerpt of the above (series 1):"}
{"Change": "T9R", "normalised enrichment score": 1.12}
{"Change": "R5L", "normalised enrichment score": 0.24}
